Assay results pooled from the literature.
Numbered parts are unrelated; each lists some results of a single study. Values joined by “and” are separate records of one study, mostly repeats; a detail may differ.
Chain of UniProt Q5XXA6 (whole entry, unmodified, looked up): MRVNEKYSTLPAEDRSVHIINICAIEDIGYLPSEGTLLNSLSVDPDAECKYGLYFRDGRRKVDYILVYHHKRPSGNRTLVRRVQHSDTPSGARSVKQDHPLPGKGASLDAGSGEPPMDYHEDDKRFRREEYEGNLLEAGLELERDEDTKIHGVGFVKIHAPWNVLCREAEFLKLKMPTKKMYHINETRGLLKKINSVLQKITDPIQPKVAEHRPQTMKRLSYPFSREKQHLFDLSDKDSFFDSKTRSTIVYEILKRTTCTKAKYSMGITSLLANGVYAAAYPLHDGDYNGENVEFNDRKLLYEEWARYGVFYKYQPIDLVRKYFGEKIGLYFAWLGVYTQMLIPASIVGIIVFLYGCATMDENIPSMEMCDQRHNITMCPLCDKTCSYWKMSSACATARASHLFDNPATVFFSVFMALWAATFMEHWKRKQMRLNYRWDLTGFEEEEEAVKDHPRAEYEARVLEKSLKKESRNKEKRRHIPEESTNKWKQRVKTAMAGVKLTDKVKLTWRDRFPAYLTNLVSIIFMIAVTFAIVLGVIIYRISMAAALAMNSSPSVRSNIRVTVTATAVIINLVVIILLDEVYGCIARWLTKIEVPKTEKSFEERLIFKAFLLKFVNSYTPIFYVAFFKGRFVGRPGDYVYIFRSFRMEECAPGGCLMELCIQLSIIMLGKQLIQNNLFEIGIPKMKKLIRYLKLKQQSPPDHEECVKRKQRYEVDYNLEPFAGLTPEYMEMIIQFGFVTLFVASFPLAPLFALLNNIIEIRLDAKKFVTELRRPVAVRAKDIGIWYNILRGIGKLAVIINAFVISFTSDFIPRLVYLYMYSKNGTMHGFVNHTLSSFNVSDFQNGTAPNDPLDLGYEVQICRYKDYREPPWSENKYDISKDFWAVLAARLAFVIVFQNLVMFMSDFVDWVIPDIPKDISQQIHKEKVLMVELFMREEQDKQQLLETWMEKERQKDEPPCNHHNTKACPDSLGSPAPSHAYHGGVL
Chain of UniProt Q9H4A3 (whole entry, looked up): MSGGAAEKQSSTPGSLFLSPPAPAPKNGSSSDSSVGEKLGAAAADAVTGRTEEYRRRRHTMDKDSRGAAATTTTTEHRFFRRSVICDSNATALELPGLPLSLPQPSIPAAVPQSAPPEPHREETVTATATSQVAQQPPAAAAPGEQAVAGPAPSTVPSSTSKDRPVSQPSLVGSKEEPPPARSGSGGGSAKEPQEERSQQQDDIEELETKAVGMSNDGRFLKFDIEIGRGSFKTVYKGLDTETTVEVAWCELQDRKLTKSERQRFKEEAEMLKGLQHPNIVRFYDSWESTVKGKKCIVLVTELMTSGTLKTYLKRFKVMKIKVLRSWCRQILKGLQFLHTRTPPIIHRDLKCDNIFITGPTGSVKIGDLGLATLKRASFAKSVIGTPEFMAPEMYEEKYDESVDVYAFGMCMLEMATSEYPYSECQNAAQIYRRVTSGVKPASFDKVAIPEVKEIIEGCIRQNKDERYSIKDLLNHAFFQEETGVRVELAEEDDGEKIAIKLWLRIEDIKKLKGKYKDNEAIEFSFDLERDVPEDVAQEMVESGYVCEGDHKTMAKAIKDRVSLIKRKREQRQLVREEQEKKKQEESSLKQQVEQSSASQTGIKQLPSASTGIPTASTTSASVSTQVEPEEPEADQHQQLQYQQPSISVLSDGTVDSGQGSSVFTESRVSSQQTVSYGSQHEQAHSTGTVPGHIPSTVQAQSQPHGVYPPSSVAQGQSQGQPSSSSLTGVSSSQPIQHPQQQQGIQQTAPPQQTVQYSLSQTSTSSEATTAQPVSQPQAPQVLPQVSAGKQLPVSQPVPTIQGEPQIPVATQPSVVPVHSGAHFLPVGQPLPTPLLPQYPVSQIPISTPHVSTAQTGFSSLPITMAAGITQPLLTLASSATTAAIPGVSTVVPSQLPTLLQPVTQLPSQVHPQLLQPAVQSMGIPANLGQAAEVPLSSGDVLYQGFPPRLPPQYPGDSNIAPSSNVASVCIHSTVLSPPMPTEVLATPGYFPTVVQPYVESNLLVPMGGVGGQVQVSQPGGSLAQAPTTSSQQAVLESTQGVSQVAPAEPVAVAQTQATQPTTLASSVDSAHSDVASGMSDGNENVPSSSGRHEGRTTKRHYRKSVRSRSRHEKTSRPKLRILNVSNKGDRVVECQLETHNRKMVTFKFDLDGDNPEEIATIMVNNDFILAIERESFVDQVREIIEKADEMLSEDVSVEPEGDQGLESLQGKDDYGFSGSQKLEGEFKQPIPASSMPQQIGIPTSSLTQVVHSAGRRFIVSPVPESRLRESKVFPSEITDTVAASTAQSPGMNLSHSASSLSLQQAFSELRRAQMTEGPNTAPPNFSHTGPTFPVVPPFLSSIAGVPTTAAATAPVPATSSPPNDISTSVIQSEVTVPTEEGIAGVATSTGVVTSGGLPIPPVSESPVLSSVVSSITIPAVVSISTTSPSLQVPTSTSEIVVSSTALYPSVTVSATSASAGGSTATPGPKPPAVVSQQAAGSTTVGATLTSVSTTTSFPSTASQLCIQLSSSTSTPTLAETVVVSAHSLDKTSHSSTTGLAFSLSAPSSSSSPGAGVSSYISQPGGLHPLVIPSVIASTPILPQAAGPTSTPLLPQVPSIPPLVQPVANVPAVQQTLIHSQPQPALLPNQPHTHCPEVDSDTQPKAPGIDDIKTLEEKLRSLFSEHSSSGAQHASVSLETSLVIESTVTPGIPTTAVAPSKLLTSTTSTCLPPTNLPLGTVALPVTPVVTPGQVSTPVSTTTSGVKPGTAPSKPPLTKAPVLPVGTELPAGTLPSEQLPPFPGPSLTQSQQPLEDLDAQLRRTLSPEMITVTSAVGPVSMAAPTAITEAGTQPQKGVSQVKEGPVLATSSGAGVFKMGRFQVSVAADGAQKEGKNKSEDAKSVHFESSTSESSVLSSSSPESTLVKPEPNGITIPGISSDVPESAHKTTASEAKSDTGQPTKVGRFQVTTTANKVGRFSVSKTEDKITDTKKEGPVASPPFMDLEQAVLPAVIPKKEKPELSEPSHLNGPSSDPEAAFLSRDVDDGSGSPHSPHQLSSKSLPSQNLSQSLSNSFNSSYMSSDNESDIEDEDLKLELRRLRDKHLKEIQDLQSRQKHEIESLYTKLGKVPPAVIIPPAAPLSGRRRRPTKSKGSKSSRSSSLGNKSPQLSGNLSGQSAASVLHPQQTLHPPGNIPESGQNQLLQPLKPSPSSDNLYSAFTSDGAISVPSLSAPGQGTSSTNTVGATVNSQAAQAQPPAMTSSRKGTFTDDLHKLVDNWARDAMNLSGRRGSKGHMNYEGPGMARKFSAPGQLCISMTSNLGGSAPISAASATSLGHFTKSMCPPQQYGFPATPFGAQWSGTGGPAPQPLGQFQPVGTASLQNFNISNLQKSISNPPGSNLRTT
Chain of UniProt O15146 (whole entry, looked up): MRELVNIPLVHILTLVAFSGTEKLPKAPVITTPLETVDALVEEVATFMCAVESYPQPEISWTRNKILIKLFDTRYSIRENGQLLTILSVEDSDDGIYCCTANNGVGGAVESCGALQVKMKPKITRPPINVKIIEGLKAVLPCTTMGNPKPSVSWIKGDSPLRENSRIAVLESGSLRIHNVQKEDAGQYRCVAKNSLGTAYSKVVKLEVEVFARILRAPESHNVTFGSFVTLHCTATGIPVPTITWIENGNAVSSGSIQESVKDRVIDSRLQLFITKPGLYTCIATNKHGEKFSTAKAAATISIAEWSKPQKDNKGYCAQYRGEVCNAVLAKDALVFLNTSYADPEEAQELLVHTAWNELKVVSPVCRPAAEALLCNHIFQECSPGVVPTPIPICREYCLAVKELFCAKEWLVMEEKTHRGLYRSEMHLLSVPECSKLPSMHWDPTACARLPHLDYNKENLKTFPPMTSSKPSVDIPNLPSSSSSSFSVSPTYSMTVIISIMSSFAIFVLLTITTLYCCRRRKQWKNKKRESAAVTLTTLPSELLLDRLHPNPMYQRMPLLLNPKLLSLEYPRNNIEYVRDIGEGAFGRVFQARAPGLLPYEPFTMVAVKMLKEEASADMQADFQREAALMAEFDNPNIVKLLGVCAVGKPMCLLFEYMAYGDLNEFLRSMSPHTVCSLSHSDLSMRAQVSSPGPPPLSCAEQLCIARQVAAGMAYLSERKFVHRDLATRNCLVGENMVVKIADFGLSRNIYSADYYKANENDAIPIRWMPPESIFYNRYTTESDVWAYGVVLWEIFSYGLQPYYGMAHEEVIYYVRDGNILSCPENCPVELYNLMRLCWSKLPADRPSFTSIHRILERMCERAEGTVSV

Sample 1 — read-out: enzyme activity; mode: inhibitor; concentration: 0.5 µM; reference: control
Target: Serine/threonine-protein kinase B-raf (BRAF, Homo sapiens, UniProt P15056)
Chain of UniProt P15056 (whole entry, looked up): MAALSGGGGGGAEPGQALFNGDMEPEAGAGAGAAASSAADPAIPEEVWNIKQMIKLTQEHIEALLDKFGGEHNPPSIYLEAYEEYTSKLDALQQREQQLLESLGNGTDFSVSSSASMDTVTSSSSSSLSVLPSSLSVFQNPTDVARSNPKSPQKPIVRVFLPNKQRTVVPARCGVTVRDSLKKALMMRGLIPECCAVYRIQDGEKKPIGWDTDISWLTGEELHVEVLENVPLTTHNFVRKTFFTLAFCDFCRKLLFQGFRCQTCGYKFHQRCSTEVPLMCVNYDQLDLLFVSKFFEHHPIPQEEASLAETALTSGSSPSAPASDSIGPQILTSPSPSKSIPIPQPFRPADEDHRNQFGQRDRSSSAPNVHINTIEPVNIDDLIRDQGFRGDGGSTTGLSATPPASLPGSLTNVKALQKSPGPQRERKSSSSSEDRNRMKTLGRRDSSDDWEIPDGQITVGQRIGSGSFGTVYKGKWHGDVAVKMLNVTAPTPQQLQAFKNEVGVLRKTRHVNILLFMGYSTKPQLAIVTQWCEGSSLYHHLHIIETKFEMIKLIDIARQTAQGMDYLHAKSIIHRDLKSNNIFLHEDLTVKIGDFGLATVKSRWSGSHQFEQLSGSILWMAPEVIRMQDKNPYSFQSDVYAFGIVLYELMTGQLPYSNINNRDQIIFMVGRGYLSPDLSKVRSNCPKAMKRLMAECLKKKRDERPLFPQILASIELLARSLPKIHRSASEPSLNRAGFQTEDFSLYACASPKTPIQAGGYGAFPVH
Compound | remaining activity [%]
O=C1Cc2c([nH]c3ccc([N+](=O)[O-])cc23)-c2ccccc2N1 | 99.5
CC(C)(C)n1nc(Cc2cccc3ccccc23)c2c(N)ncnc21 | 91.3
Nc1ncnc2c1cnn2-c1ccccc1 | 93.6
CCc1[nH]c(-c2ccc(OC)cc2)nc1-c1ccncc1 | 102
Cc1ccc(NC2=CC(=O)c3sc(C)nc3C2=O)cc1 | 96.7
Nc1nc(Nc2ccc(S(N)(=O)=O)cc2)nn1C(=O)c1c(F)cccc1F | 55
O=C1NC(=O)C(c2c[nH]c3ccccc23)=C1c1c[nH]c2ccccc12 | 101
O=S(=O)(NCCNC/C=C/c1ccc(Br)cc1)c1cccc2cnccc12 | 99.8
CSc1nc(-c2ccnc(N[C@@H](C)c3ccccc3)c2)c(-c2ccc(F)cc2)[nH]1 (racemic) | 91.8

Sample 2 — concentration: 1 µM
SMILES: CN(C)c1ncnc(-c2ccc3nc(Nc4cc(CN5CCN(C(=O)CC(F)(F)F)CC5)ccn4)[nH]c3c2)c1Cl
target | read-out | technique | remaining binding
Myosin light chain kinase (MYLK3, Homo sapiens, UniProt Q32MK0) | cell-free assay | competition with immobilised ligand | 90%
Serine/threonine-protein kinase RIO1 (RIOK1, Homo sapiens, UniProt Q9BRS2) | cell-free assay | competition with immobilised ligand | 100%
Ephrin type-A receptor 4 (EPHA4, Homo sapiens, UniProt P54764) | cell-free assay | competition with immobilised ligand | 92%
Cyclin-dependent kinase-like 3 (CDKL3, Homo sapiens, UniProt Q8IVW4) | cell-free assay | competition with immobilised ligand | 86%
Tyrosine-protein kinase FRK (FRK, Homo sapiens, UniProt P42685) | cell-free assay | competition with immobilised ligand | 85%
Muscle, skeletal receptor tyrosine-protein kinase (MUSK, Homo sapiens, UniProt O15146) | cell-free assay | competition with immobilised ligand | 100%
Serine/threonine-protein kinase MRCK gamma (CDC42BPG, Homo sapiens, UniProt Q6DT37) | – | competition binding | 100%
Serine/threonine-protein kinase WNK1 (WNK1, Homo sapiens, UniProt Q9H4A3) | cell-free assay | competition with immobilised ligand | 86%
Serine/threonine-protein kinase ULK1 (ULK1, Homo sapiens, UniProt O75385) | cell-free assay | competition with immobilised ligand | 75%
Mitogen-activated protein kinase 8 (MAPK8, Homo sapiens, UniProt P45983) | cell-free assay | competition with immobilised ligand | 63%
Atypical kinase COQ8A, mitochondrial (COQ8A, Homo sapiens, UniProt Q8NI60) | cell-free assay | competition with immobilised ligand | 100%
Phosphatidylinositol 4-phosphate 5-kinase type-1 gamma (PIP5K1C, Homo sapiens, UniProt O60331) | cell-free assay | competition with immobilised ligand | 100%
Eukaryotic translation initiation factor 2-alpha kinase 1 (EIF2AK1, Homo sapiens, UniProt Q9BQI3) | cell-free assay | competition with immobilised ligand | 54%
Phosphatidylinositol 4,5-bisphosphate 3-kinase catalytic subunit alpha isoform (PIK3CA, Homo sapiens, UniProt P42336, M1043I) | cell-free assay | competition with immobilised ligand | 56%

Sample 3 — host: mouse; matrix: microsomes or S9; concentration: 2 µM; time: 0.5 h
Structure (SMILES) | remaining compound [%]
Clc1nc(Cl)n(C23CC4CC(CC(C4)C2)C3)n1 | 50.7
COc1cc(=O)n(C)cc1C(=O)N1CCN(c2ccc(C(F)(F)F)cn2)CC1 | 96.8
COc1ccc2c(c1)OCC(Cc1ccc(OC)c(O)c1)C2=O (stereo not shown) | 1.11
CC1(c2ccccn2)CCN(C(=O)C(O)c2ccccc2)C1 (stereo not shown) | 89.7
CC1CCC(N(Cc2nnc(C3CCC3)n2C)CC2CCCO2)CC1 (stereo not shown) | 0.0264
CN1CCCn2nc(C(=O)N(C)Cc3cc4cc(F)ccc4[nH]3)cc2C1 | 16.6
CN(C)c1nc(N2CCOC3(CCCC3)C2)ncc1F | 0.85

Other studies, line by line
SMILES | target | read-out | technique | concentration | reference | endpoint | result
CCc1c(C)nc(SCC(=O)Nc2nc(-c3ccc(OC)cc3)cs2)[nH]c1=O | Anoctamin-1 (ANO1, Homo sapiens, UniProt Q5XXA6, del476-501) | ion current | patch clamp | 10 µM | before drug | normalized current | 0.56 and 0.584 and 0.628 and 0.603 and 0.622

Some of these lines once more (sample 2):
target | read-out | technique | remaining binding
Mitogen-activated protein kinase 8 (MAPK8, Homo sapiens, UniProt P45983) | cell-free assay | competition with immobilised ligand | 63%
Atypical kinase COQ8A, mitochondrial (COQ8A, Homo sapiens, UniProt Q8NI60) | cell-free assay | competition with immobilised ligand | 100%
Phosphatidylinositol 4-phosphate 5-kinase type-1 gamma (PIP5K1C, Homo sapiens, UniProt O60331) | cell-free assay | competition with immobilised ligand | 100%
Eukaryotic translation initiation factor 2-alpha kinase 1 (EIF2AK1, Homo sapiens, UniProt Q9BQI3) | cell-free assay | competition with immobilised ligand | 54%
